Measurements collected from several papers.
Protocols differ between the studies behind these lines. “And” joins repeats or separate records; there may be more than shown. ± gives the spread as reported.

| Structure (SMILES) | test | system | conditions | how to read | measurement | result |
| --- | --- | --- | --- | --- | --- | --- |
| NS(=O)(=O)NCC(O)c1ccccc1F (stereo not shown) | MES seizures | rat | oral | – | ED50 | 50 mg/kg |
| CCCCCCOC(=O)Cc1c(C)n(C(=O)c2ccc(Cl)cc2)c2ccc(OC)cc12 | – | BALB/c mice, acetic acid writhing | intraperitoneal, 30 mg/kg, 20 min count | – | writhing count | 10 ± 1 |
| Cc1ncc([N+](=O)[O-])n1CCOCc1nnc(SCC(=O)c2ccc(Cl)cc2)o1 | – | – | 50 µg/mL, 45 min | – | DPPH scavenging | 37.1 ± 0.7% |
| CCCC[C@H](NC(=O)[C@@H](NC(=O)[C@H](CC(=O)O)NC(=O)[C@H](CCC(N)=O)NC(=O)[C@H](CC(C)C)NC(=O)[C@H](CC(C)C)NC(=O)[C@H](CCCN)NC(=O)[C@H](CCCNC(=N)N)NC(=O)[C@H](C)NC(=O)[C@H](CO)NC(=O)[C@H](CC(C)C)NC(=O)[C@H](CCC(N)=O)NC(=O)[C@H](CC)NC(=O)[C@H](CC(C)C)NC(=O)[C@@H](NC(=O)[C@H](CCCN)NC(=O)[C@H](CCCNC(=N)N)NC(=O)[C@H](Cc1ccc(O)cc1)NC(=O)[C@H](CO)NC(=O)[C@H](CCC(N)=O)NC(=O)[C@@H](NC(=O)[C@H](Cc1ccccc1)NC(=O)[C@@H](NC(=O)[C@H](C)NC(=O)[C@H](CC(=O)O)NC(=O)[C@@H](C)NC(=O)CCc1ccc(O)cc1)[C@@H](C)CC)[C@@H](C)O)C(C)C)[C@@H](C)CC)C(=O)N[C@@H](CC(=O)O)C(=O)N[C@H](CCCNC(=N)N)C(=O)NC | GH release, ELISA | male Sprague-Dawley rat, anaesthetised, serum | subcutaneous, 3 µg/kg, 0 min | – | serum GH level | 24.6 ± 5.3 ng/mL |
| COc1cc(Cn2ccc3cc(C(=O)NCC45CC6CC(CC(C6)C4)C5)ccc32)ccc1C(=O)NO | immunohistochemistry, measured: amyloid-beta | 5xFAD mouse, brain | intraperitoneal, 10 mg/kg once daily, 2 months | relative to: vehicle | amyloid-positive area | decreased |
| COc1ccc(C2CC(c3ccc(C)cc3)=Nc3ccccc3S2)cc1 (stereo not shown) | oral glucose tolerance test | fasted normal rat, blood | oral, 10 mg/kg, 0 min, added: oral glucose 3 g/kg | – | blood glucose | 103 ± 4.03 mg/dL |
| CCCC[C@H](NC(=O)[C@@H](NC(=O)[C@H](CC(=O)O)NC(=O)[C@H](CCC(N)=O)NC(=O)[C@H](CC(C)C)NC(=O)[C@H](CC(C)C)NC(=O)[C@H](CCCN)NC(=O)[C@H](CCCNC(=N)N)NC(=O)[C@H](C)NC(=O)[C@H](CO)NC(=O)[C@H](CC(C)C)NC(=O)[C@H](CCC(N)=O)NC(=O)[C@H](CC)NC(=O)[C@H](CC(C)C)NC(=O)[C@@H](NC(=O)[C@H](CCCN)NC(=O)[C@H](CCCNC(=N)N)NC(=O)[C@H](Cc1ccc(O)cc1)NC(=O)[C@H](CO)NC(=O)[C@H](CC(N)=O)NC(=O)[C@@H](NC(=O)[C@H](Cc1c(F)c(F)c(F)c(F)c1F)NC(=O)[C@@H](NC(=O)[C@H](C)NC(=O)[C@H](CC(=O)O)NC(=O)[C@@H](C)NC(=O)CCc1ccc(O)cc1)[C@@H](C)CC)[C@@H](C)O)C(C)C)[C@@H](C)CC)C(=O)N[C@@H](CO)C(=O)N[C@@H](CCCNC(=N)N)C(=O)NCCCC(N)=O | GH release, ELISA | male rat, anaesthetised, serum | intravenous, 1 µg/kg, 0 min | – | serum GH level | 59.9 ± 15.9 ng/mL |
| CCc1nc(-c2ccc(-c3ccc(CCC(N)(CO)CO)cc3)cc2)co1 | – | Sprague-Dawley rat, peripheral blood lymphocytes | oral, 1 mg/kg, single dose | – | maximal inhibition of PBLs | 50% |
| Clc1ccc(C(c2c[nH]c3ccccc23)c2c[nH]c3ccccc23)cc1 | – | mice, MPTP/probenecid Parkinson model, substantia nigra pars compacta | oral, 25 mg/kg daily, 14 days | relative to: saline control | loss of TH+ neurons | 35% and 35.3% |
| COc1ccc(-c2oc3ccccc3c(=O)c2OCc2ccccc2)cc1 | – | diabetic rat | 5 mg/kg, 28 days, p-nitrophenyl β-glucoside induced | – | serum HDL cholesterol | 51.1 ± 2.01 mg/dL |
| CCCCCCCCCCCCCCCC(=O)N[C@@H](CCCCN)C(=O)N[C@@H](CCCCN)C(=O)N[C@@H](CO)C(=O)N[C@@H](CCCNC(=N)N)C(=O)N[C@@H](C)C(=O)N[C@@H](CC(C)C)C(=O)N[C@@H](Cc1ccccc1)C(N)=O | – | guinea pig | intravenous infusion, 3 or 6 mg/kg, 15 min, added: ADP 20 µM | – | ex vivo platelet aggregation | no effect |
| CCCCCCCCCCCCCCCC(=O)N[C@@H](CCC(=O)NCCCC[C@H](NC(=O)[C@H](CC(=O)O)NC(=O)[C@H](CO)NC(=O)[C@@H](NC(=O)[C@H](Cc1ccccc1)NC(=O)[C@@H](NC(=O)CNC(=O)[C@H](CCC(N)=O)NC(=O)[C@H](CO)NC(=O)[C@@H](N)Cc1c[nH]cn1)[C@@H](C)O)[C@@H](C)O)C(=O)N[C@@H](CO)C(=O)N[C@@H](CCC(=O)O)C(=O)N[C@@H](Cc1ccc(O)cc1)C(=O)N[C@@H](CC(C)C)C(=O)N[C@@H](CC(=O)O)C(=O)N[C@@H](CO)C(=O)N[C@@H](CCC(=O)O)C(=O)N[C@@H](CCCNC(=N)N)C(=O)N[C@@H](C)C(=O)N[C@@H](CCCNC(=N)N)C(=O)N[C@@H](CC(=O)O)C(=O)N[C@@H](Cc1ccccc1)C(=O)N[C@H](C(=O)N[C@@H](C)C(=O)N[C@@H](Cc1c[nH]c2ccccc12)C(=O)N[C@@H](CC(C)C)C(=O)N[C@@H](CCC(=O)O)C(=O)N[C@@H](C)C(=O)NCC(=O)NCC(=O)O)C(C)C)C(=O)O | – | female cynomolgus monkey | subcutaneous, 27 nmol/kg/day for 8 weeks, day 57 | relative to: starting body weight | body weight loss | 13% |
| COc1ccc(S(=O)(=O)N2CCc3ccccc3C2)cc1N1CCN(C(=O)c2ccc(F)cc2C(F)(F)F)CC1 | – | 6-OHDA lesioned rats | 0.1 µg/24 h, 12 weeks post lesion | relative to: lesioned over intact side | TH-ir cells in SNpc | 17.2 ± 3.3% |
| Cc1cc2c(cc1C1(c3ncc(C(=O)O)cn3)CC1)C(C)(C)CCC2(C)C | RNA sequencing, measured: Upp1 | rat, brain | dose not given, 24 h | relative to: vehicle | log2 fold change | 0.055 |
| CC[C@H]1[C@@H](O)[C@@H]2[C@H](CC[C@]3(C)[C@@H]([C@H](C)CCOS(=O)(=O)[O-])CC[C@@H]23)[C@@]2(C)CC[C@@H](O)C[C@@H]12.[Na+] | EchoMRI | ob/ob NASH mouse model | oral, 3 mg/kg once daily, 8 weeks | relative to: body weight | whole-body lean mass | 33.9 ± 0.9% |
| COc1ccc2c(c1)c(CC(=O)OCC(=O)OC(C)(C)C)c(C)n2C(=O)c1ccc(Cl)cc1 | acetic acid writhing test | BALB/c mouse | intraperitoneal, 10 mg/kg | relative to: negative control | analgesia | 56% |
| CCNS(=O)(=O)c1ccc(COc2ccc3nc4ccc(=O)cc-4oc3c2)cc1 | measured: SNAIL1.CBG bioluminescence | mouse, 4T1 breast implant tumour, tumour | intravenous, 10 mg/kg single, 4 h | relative to: vehicle | reduction | 60% |
| CCCC[C@H](NC(=O)[C@@H](NC(=O)[C@H](CC(=O)O)NC(=O)[C@H](CCC(N)=O)NC(=O)[C@H](CC(C)C)NC(=O)[C@H](CC(C)C)NC(=O)[C@H](CCCN)NC(=O)[C@H](CCCNC(=N)N)NC(=O)[C@H](C)NC(=O)[C@H](CO)NC(=O)[C@H](CC(C)C)NC(=O)[C@H](CCC(N)=O)NC(=O)[C@H](CC)NC(=O)[C@H](CC(C)C)NC(=O)[C@@H](NC(=O)[C@H](CCCN)NC(=O)[C@H](CCCNC(=N)N)NC(=O)[C@H](Cc1ccc(O)cc1)NC(=O)[C@H](CO)NC(=O)[C@H](CCC(N)=O)NC(=O)[C@@H](NC(=O)[C@H](Cc1ccccc1)NC(=O)[C@@H](NC(=O)[C@H](C)NC(=O)[C@H](CC(=O)O)NC(=O)[C@@H](C)NC(=O)[C@H](Cc1ccc(O)cc1)NC)[C@@H](C)CC)[C@@H](C)O)C(C)C)[C@@H](C)CC)C(=O)N[C@@H](CC(=O)O)C(=O)N[C@@H](CCCNC(=N)N)C(=O)NCC | GH release, ELISA | male Sprague-Dawley rat, anaesthetised, serum | subcutaneous, 3 µg/kg, 0 min | – | serum GH level | 35.5 ± 7.6 ng/mL |
| CN(C)c1ccc(-c2oc3ccccc3c(=O)c2OCc2ccccc2)cc1 | – | diabetic rat | 7.5 mg/kg, p-nitrophenyl β-glucoside induced | – | serum alanine aminotransferase | 31.1 ± 2.35 IU |
| CCCOC(=O)Cc1c(C)n(C(=O)c2ccc(Cl)cc2)c2ccc(OC)cc12 | acetic acid writhing test | BALB/c mouse | intraperitoneal, 20 mg/kg | relative to: negative control | analgesia | 64.4% |
| Cc1ccc(-c2oc3ccccc3c(=O)c2OCc2ccccc2)cc1 | – | diabetic rat | 7.5 mg/kg, 28 days, p-nitrophenyl β-glucoside induced | – | serum HDL cholesterol | 44.1 ± 1.84 mg/dL |
| COc1c2c(cc3oc(CO)cc(=O)c13)O[C@H](C(C)(C)O)C2 | – | mouse, xylene ear edema | oral, 4 mg/kg | – | ear edema weight increase | 2.16 ± 0.36 mg |

For quick reference, copied from above:
| Structure (SMILES) | test | system | conditions | how to read | measurement | result |
| --- | --- | --- | --- | --- | --- | --- |
| CC[C@H]1[C@@H](O)[C@@H]2[C@H](CC[C@]3(C)[C@@H]([C@H](C)CCOS(=O)(=O)[O-])CC[C@@H]23)[C@@]2(C)CC[C@@H](O)C[C@@H]12.[Na+] | EchoMRI | ob/ob NASH mouse model | oral, 3 mg/kg once daily, 8 weeks | relative to: body weight | whole-body lean mass | 33.9 ± 0.9% |
| CCCC[C@H](NC(=O)[C@@H](NC(=O)[C@H](CC(=O)O)NC(=O)[C@H](CCC(N)=O)NC(=O)[C@H](CC(C)C)NC(=O)[C@H](CC(C)C)NC(=O)[C@H](CCCN)NC(=O)[C@H](CCCNC(=N)N)NC(=O)[C@H](C)NC(=O)[C@H](CO)NC(=O)[C@H](CC(C)C)NC(=O)[C@H](CCC(N)=O)NC(=O)[C@H](CC)NC(=O)[C@H](CC(C)C)NC(=O)[C@@H](NC(=O)[C@H](CCCN)NC(=O)[C@H](CCCNC(=N)N)NC(=O)[C@H](Cc1ccc(O)cc1)NC(=O)[C@H](CO)NC(=O)[C@H](CCC(N)=O)NC(=O)[C@@H](NC(=O)[C@H](Cc1ccccc1)NC(=O)[C@@H](NC(=O)[C@H](C)NC(=O)[C@H](CC(=O)O)NC(=O)[C@@H](C)NC(=O)CCc1ccc(O)cc1)[C@@H](C)CC)[C@@H](C)O)C(C)C)[C@@H](C)CC)C(=O)N[C@@H](CC(=O)O)C(=O)N[C@H](CCCNC(=N)N)C(=O)NC | GH release, ELISA | male Sprague-Dawley rat, anaesthetised, serum | subcutaneous, 3 µg/kg, 0 min | – | serum GH level | 24.6 ± 5.3 ng/mL |
